Assay results of several laboratories.
Protocols differ between the studies behind these lines. ± marks the error that the study gave.
MGM101: MGM101 23-269 (Saccharomyces cerevisiae, UniProt P32787)
Sequence of UniProt P32787 (whole entry, looked up): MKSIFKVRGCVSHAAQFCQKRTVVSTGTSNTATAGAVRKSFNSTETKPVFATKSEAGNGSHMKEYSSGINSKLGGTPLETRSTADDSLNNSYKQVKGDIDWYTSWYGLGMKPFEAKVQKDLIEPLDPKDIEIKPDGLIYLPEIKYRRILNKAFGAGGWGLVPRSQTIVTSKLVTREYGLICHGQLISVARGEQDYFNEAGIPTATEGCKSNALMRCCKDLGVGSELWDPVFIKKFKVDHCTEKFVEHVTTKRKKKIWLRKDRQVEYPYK
HY5: HY5 1-158 (Solanum lycopersicum, UniProt Q9SM50)
Sequence of UniProt Q9SM50 (whole entry, looked up): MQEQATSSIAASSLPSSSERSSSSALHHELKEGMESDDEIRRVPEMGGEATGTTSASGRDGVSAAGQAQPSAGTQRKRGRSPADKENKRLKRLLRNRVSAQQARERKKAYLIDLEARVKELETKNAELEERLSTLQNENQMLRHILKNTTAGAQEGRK
RAP1/Yku70/Yku80: RAP1/Yku70/Yku80 (Saccharomyces cerevisiae)
LHY full length assumed: LHY full length assumed (Arabidopsis thaliana, UniProt Q6R0H1)
Sequence of UniProt Q6R0H1 (whole entry, looked up): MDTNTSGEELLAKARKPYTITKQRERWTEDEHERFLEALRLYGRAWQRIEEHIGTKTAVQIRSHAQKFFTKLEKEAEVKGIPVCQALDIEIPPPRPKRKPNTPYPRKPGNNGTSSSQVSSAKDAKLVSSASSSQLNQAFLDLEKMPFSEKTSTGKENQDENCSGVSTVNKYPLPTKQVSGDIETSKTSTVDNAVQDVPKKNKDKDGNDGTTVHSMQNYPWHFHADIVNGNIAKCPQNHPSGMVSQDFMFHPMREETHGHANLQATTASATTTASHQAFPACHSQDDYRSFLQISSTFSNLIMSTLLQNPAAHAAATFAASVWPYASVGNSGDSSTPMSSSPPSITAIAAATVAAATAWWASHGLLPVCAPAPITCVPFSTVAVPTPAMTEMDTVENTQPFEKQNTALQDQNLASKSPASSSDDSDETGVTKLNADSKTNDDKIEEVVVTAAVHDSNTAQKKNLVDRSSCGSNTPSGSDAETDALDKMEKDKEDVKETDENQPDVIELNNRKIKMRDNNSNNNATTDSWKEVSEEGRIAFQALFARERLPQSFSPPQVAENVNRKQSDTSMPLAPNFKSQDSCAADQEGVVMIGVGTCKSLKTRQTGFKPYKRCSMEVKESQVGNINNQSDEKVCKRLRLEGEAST
Rc3h1: Rc3h1 411-454 (Mus musculus, UniProt Q4VGL6)
Sequence of UniProt Q4VGL6 (whole entry, looked up): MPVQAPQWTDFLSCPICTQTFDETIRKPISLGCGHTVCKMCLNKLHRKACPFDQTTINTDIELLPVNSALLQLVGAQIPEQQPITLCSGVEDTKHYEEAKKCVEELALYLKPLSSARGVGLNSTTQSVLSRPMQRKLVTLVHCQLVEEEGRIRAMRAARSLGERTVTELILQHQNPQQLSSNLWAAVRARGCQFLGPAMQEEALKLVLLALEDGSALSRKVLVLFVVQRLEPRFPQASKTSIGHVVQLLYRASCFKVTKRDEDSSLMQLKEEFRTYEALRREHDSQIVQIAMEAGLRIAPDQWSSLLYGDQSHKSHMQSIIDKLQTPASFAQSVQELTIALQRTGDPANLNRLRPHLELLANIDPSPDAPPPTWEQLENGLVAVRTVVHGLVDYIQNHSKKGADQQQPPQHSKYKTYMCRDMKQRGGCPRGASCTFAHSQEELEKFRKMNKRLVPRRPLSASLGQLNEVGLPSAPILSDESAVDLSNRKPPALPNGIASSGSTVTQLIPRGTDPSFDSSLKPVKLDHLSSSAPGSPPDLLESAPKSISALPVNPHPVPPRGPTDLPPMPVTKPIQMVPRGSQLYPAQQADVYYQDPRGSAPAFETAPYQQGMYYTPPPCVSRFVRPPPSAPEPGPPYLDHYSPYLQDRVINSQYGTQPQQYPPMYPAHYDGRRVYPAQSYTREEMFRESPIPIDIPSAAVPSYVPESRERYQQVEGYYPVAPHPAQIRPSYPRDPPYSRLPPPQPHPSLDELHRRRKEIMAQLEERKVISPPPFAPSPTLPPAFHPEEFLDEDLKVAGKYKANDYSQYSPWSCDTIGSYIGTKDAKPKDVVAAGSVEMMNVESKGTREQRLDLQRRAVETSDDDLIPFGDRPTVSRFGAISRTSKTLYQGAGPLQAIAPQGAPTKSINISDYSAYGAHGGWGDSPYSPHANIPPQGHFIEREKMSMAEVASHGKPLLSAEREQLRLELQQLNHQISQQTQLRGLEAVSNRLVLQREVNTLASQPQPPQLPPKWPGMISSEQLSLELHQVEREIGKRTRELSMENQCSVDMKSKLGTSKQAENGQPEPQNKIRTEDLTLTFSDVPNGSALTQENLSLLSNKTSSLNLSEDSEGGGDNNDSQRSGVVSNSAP
Sequence of UniProt P33240 (whole entry, looked up): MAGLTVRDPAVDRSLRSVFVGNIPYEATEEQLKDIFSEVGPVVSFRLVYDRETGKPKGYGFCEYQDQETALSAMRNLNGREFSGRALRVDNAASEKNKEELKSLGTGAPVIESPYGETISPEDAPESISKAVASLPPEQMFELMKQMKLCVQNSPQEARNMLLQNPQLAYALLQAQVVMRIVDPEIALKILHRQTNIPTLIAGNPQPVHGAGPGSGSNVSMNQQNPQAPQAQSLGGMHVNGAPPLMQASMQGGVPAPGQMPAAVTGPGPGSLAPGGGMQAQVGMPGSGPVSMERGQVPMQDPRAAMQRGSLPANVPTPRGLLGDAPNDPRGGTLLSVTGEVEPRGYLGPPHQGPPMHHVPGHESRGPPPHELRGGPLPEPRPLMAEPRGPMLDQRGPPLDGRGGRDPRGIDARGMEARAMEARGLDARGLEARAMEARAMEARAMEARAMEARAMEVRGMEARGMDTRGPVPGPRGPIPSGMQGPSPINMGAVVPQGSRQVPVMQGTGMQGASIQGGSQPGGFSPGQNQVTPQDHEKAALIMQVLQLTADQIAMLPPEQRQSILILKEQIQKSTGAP
Sequence of UniProt Q15109 (whole entry, looked up): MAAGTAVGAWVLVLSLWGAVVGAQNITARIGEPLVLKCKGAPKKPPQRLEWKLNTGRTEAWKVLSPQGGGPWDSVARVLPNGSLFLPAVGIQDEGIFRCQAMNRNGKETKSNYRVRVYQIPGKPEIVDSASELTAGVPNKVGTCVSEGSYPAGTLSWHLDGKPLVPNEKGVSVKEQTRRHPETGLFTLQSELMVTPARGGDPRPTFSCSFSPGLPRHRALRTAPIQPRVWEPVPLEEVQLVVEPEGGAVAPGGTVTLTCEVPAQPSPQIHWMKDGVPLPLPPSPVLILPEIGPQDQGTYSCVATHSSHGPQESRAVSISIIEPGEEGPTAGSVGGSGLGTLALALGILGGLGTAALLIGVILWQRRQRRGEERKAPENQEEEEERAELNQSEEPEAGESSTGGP
Sequence of UniProt O00425 (whole entry, looked up): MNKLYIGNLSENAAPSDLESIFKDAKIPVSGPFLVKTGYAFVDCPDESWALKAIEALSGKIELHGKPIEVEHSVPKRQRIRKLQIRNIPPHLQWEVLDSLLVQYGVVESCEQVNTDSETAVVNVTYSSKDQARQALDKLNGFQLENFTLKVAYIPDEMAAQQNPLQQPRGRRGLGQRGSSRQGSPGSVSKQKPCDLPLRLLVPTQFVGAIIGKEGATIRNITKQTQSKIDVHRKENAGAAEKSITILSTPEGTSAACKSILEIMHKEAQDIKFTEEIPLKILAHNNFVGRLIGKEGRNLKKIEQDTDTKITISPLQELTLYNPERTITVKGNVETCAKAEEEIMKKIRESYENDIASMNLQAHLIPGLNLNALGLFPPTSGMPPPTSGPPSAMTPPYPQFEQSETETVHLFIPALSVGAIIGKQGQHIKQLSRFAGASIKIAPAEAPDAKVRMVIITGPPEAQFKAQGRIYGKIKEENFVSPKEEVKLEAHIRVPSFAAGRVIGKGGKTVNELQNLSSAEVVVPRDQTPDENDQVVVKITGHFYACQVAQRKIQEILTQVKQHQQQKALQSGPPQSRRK
Sequence of UniProt Q13IY4 (whole entry, looked up): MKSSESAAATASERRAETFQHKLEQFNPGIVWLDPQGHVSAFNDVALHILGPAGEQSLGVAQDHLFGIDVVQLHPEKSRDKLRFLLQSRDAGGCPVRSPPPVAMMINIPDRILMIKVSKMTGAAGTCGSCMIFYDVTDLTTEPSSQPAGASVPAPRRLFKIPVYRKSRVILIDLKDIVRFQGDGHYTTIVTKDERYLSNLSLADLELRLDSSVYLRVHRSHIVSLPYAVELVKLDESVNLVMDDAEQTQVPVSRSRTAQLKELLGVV
Sequence of UniProt P48431 (whole entry, looked up): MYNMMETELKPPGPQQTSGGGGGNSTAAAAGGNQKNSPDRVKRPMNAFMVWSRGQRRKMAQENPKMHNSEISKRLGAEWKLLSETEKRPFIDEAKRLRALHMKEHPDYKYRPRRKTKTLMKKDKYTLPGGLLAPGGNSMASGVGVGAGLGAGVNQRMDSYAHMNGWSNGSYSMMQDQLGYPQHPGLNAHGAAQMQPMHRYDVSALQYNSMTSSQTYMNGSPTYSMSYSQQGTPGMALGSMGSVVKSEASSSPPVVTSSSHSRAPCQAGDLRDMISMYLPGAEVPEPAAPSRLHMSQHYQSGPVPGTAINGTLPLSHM
Sequence of UniProt P60842 (whole entry, looked up): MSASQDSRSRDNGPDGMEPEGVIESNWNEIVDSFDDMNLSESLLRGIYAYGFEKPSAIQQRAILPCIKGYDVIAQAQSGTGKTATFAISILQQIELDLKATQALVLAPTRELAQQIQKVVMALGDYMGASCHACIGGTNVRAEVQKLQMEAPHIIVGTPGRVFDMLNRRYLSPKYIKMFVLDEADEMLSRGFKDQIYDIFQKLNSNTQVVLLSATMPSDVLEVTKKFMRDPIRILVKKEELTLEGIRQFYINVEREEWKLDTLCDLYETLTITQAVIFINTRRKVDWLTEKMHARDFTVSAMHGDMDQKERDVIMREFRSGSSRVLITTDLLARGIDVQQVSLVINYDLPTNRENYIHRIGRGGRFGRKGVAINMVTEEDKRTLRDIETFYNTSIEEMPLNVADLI
Sequence of UniProt O24646 (whole entry, looked up): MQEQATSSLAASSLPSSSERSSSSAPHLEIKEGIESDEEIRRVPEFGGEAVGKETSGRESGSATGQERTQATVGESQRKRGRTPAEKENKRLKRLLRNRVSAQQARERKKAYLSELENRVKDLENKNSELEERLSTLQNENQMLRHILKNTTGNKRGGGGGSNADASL

TTGATAAGAGGTCATTTTTGCGGATGGCTTAGAGCTTAATTGCTGAATCTGGTGCTGTAGCTCAACATGTTTTAAATATGCAA (dsDNA)  binding (MGM101; mass photometry; double-stranded DNA, one strand shown): binds
GCTTGGGAGGGCCATCTGGCATTG (dsDNA)  binding (Hand2 full length assumed N105A/E108A (Mus musculus, UniProt Q61039); EMSA; double-stranded DNA, one strand shown): no binding
TCGTCGTTTTGTCGTTTTGTCGTT (ssDNA)  binding (AGER 23-342 (Homo sapiens, UniProt Q15109); competition EMSA; single-stranded DNA): binds
AGAAGAAGAAGAAGA (ssRNA)  binding (EIF4A1 1-406 (Homo sapiens, UniProt P60842); fluorescence polarization; RNA; added: ATP, silvestrol 10 µM): binds
AAGGTGTGTGGGTGTGA (dsDNA)  binding (RAP1 1-827 (Saccharomyces cerevisiae, UniProt P11938); EMSA; double-stranded DNA, one strand shown): binds
TTTTTGGGGAGGGTGGGGAGGGTGGGGAAGGTTTTT (G-quadruplex DNA (Homo sapiens); intramolecular G4)  binding (NCL fragment (Homo sapiens); DMS footprinting; folded DNA; KCl 140 mM): binds
AGGAGCGTGACACGTAAGACAAAAAG (dsDNA)  binding (HY5; EMSA; double-stranded DNA, one strand shown): binds
AAAATTCCGTGGAAAACC (dsDNA)  binding (PDR3 1-184 (Saccharomyces cerevisiae, UniProt P33200); competition; double-stranded DNA, one strand shown): binds
DNA 1 AAGGTGTGTGGGTGTGGTAATTTTTTT / DNA 2 ATTACCACACCCACACACCTT (dsDNA; 3' 6 nt overhang)  binding (RAP1/Yku70/Yku80; EMSA; double-stranded DNA): binds
TGTCAGGCAAGAATTAGAGACAAGCGGTCAGCAGAGCCTCAGTGCTGATCGTCGGAGCTTGGGAGCAGGA (dsDNA)  binding (MAFB full length assumed (Homo sapiens, UniProt Q9Y5Q3); EMSA; double-stranded DNA, one strand shown): binds
TTATTCGAATTTTTAAGCGACTCGAATTGTATAA (dsDNA)  binding (Transcription factor MYB33 isoform X1 1-556 (Gossypium hirsutum, UniProt A0A1U8PAG7); EMSA; double-stranded DNA, one strand shown): no binding
ACCAAGCGGGATGCGGAGCCGCCGCCGCCGCTG (dsDNA; blunt)  binding (WT1 zinc finger domain 323-435 (Homo sapiens); EMSA; double-stranded DNA, one strand shown): no binding
DNA 1 AGATGTCCTAGTTTAGTTGGCTGATCGTTG / DNA 2 CAACGATCAGCCAAC (dsDNA; 5' 15 nt overhang; 3'-recessed)  binding (tnsE full length assumed R388A (Escherichia coli, UniProt P05845); EMSA; double-stranded DNA): binds
AGTTGGCAAGTC (dsDNA)  binding (NFIB 14-176 K126A (Homo sapiens, UniProt O00712); BLI; double-stranded DNA, one strand shown; added: Zn2+ 1 mM): no binding
UAUUAUUGU (ssRNA)  binding (pos-1 97-173 (Caenorhabditis elegans, UniProt G5EF15); NMR 15N-1H HSQC; RNA): binds
GACTCATTGTAATGCAAAAGGG (dsDNA; blunt)  binding (SOX2 39-118 (Homo sapiens, UniProt P48431); NMR; double-stranded DNA, one strand shown): binds
TTTTTTTTTTCGTATGGCACGGGGTTGGTGTTGGGTTGG (ssDNA; 5'-phosphate; G-quadruplex)  binding (CSN2 16-224 (Bos taurus, UniProt P02666); electrolyte-gated transistor sensor; single-stranded DNA): no binding
CGGGAACUCGCGUAGACACGCCCG (structured RNA)  binding (RELA/NFKB1 RHR domains (Homo sapiens); EMSA; folded RNA): binds
TCGTCAAAGCCTCTGACTTTGGATATCCCCGACCCCACTAAACTT (dsDNA)  binding (PHR2 1-426 (Oryza sativa, UniProt Q6Z156); EMSA; double-stranded DNA, one strand shown): binds
DNA 1 AAGGTGTGTGGGTGTGGTAATTTT / DNA 2 ATTACCACACCCACACACCTT (dsDNA; 3' 3 nt overhang)  binding (RAP1/Yku70/Yku80; EMSA; double-stranded DNA): binds
GUGUGU (ssRNA)  binding (CSTF2 1-107 (Homo sapiens, UniProt P33240); NMR titration; RNA; 27 °C): binds
GGTGACACAAGAAAGGTATCTTTG (dsDNA)  binding (SPL2 1-415 (Malus domestica, UniProt D9ZJC1); EMSA; double-stranded DNA, one strand shown): no binding
ATTATTCCCGAGTCAATTTCAAATGCT (dsDNA)  binding (WRKY domain-containing protein 1-296 (Camellia sinensis, UniProt A0A4S4EXI7); EMSA; double-stranded DNA, one strand shown): binds
GAGCTGCAAGTGGATATTTGGACCTCTTTGAGGTCTTCGTTGGAAACGGGATTTCCTCATATAATGTTACACAGAAGAATTCTCAGTAACTTATTTGTGGTGTGTGTATTCAACTCACAGAGGTGAACCTTCCTTCAGAAAGAGCAGATTTGAAACACTCTTTTTGTACCC (dsDNA)  binding (CENPM 1-171 (Homo sapiens, UniProt Q9NSP4); EMSA; double-stranded DNA, one strand shown): no binding
GGTGGTGGTGGTGGTGGT (ssDNA)  binding (recA full length assumed F204S (Escherichia coli, UniProt P0A7G6); fluorescence anisotropy; single-stranded DNA; added: ATPγS): binds
CTATAGCAATGGTACGGTACTTCCCCTCGGCACGTTCTCAGTAGCGCTCGCTGGTCATCCCACACAAAAGTGCACGCTACTTTGCTAA (ssDNA; 5'-amino C6 linker)  binding (APOA1 25-267 (Homo sapiens, UniProt P02647); electrochemiluminescence aptasensor; single-stranded DNA): binds
CTATTCATCTATCATAAATTAATTTCTCGCGGGGGTAAGAATAACTAATCACTGAACAAA (dsDNA)  binding (LHY full length assumed; EMSA; double-stranded DNA, one strand shown): no binding
AGGGTTAGGGTTAGGGTTAGGG (G-quadruplex DNA; hybrid)  binding (PARP2 full length, 1-570 (Homo sapiens); EMSA; folded DNA): no binding
CCCCATCACCCAATCCCAGCCCTCCACGTGTCACCAACCCCATGGCAAACCTCC (dsDNA)  binding (GLK1 1-455 (Oryza sativa, UniProt Q5Z5I4); EMSA; double-stranded DNA, one strand shown): binds
TCGATTTTCGCGCAAATT (dsDNA; blunt)  binding (rcoM2 full length assumed (Paraburkholderia xenovorans, UniProt Q13IY4); fluorescence anisotropy; double-stranded DNA, one strand shown; Fe(II)-CO): no binding
AAAAAAAA (ssRNA)  binding (PABPN1 161-257 F215L/Y217L (Homo sapiens, UniProt Q86U42); pull-down; RNA): no binding
GCATGCCTCGAGTCTAGAGGTACCAGATCTGATCCTCTAGAGTCGACC (dsDNA)  binding (MGMT full length assumed (Homo sapiens, UniProt P16455); sedimentation velocity AUC; double-stranded DNA, one strand shown; 500 nM): binds
ACCAAGTGGGATGCGGAGCCGCCGCCGCCGCCG (dsDNA; blunt)  binding (WT1 zinc finger domain 323-435 (Homo sapiens); EMSA; double-stranded DNA, one strand shown): binds
CCACGACAGTTACGTATGAACCTTTG (dsDNA)  binding (HY5; EMSA; double-stranded DNA, one strand shown): binds
CAGCATGGCAGCGCGCATAATCAGCGCGGCAGCGCATTTTCATTC (dsDNA)  binding (gbp (Glycine max, UniProt Q8LKV1); EMSA; double-stranded DNA, one strand shown): no binding
AACUACAGGACUAUUUGACAUCAUAAUAAA (ssRNA)  binding (IGF2BP3 1-579 (Homo sapiens, UniProt O00425); pull-down; RNA): binds
DNA 1 CACTGGCCGTCTTACGGTCGCTCTGCTCGACG / DNA 2 CGACCGTAAGACGGCCAGTG (dsDNA; 20 bp, 3' 12 nt overhang)  Kd (RECQL 63-592 (Bos taurus, UniProt A0JN36); fluorescence anisotropy; double-stranded DNA; added: Mg2+ 3 mM): 10.6 ± 1.7 nM
TGTTGTGTGGAATTGTGAGCGGATAACAATTTCACACAGG (dsDNA (Escherichia coli); blunt)  binding (lacI full length assumed N125C/D149C (Escherichia coli, UniProt P03023); filter binding; double-stranded DNA, one strand shown): binds
UGUACAUA (ssRNA)  binding (pum 1091-1426 (Drosophila melanogaster, UniProt P25822); crystal structure; RNA): binds
DNA 1 ACTTGCAAATTTGCAAATGCAT / DNA 2 TGATGCATTTGCAAATTTGCAA (dsDNA (Aquifex aeolicus); 5' 2-nt overhang)  binding (Transcriptional regulator (NtrC family) 374-442 (Aquifex aeolicus, UniProt O66551); X-ray crystallography; double-stranded DNA): binds
GGTTAGGGTTAG (ssDNA; 5'-phosphate)  binding (Pot1 1-301 (Mus musculus, UniProt Q91WC1); EMSA; single-stranded DNA): binds
CGCGCGCGCGCG (dsRNA; blunt self-complementary duplex)  binding (ADAR 133-199 (Homo sapiens, UniProt P55265); AUC sedimentation velocity; double-stranded RNA, one strand shown): binds
ATTTTTA (ssDNA)  binding (ELAVL1 2-99 (Homo sapiens, UniProt Q15717); ITC; single-stranded DNA; pH 5.5, 25 °C): binds
ATACTAACAATCAGAACCCGGATTAATCGAAAGCTT (dsDNA)  binding (tnsD 1-318 (Escherichia coli, UniProt P13991); EMSA; double-stranded DNA, one strand shown): binds
GAACAUAGAAAGAGAGAGAUAUAAA (ssRNA)  binding (ECT2 full length assumed (Arabidopsis thaliana, UniProt Q9LJE5); EMSA; RNA): no binding
CTACCTTAATTAGTTAGGTACTTTTCACGTTACCTTGAAACCTATAAAATATAGAC (dsDNA)  binding (HY5 full length assumed (Arabidopsis thaliana, UniProt O24646); EMSA; double-stranded DNA, one strand shown): binds
TATTTTTAAAACAAAAATATATTAACAAAAATCTAAAACTAAAATCTAAAATCTAGAAAC (dsDNA)  binding (LHY full length assumed; EMSA; double-stranded DNA, one strand shown): binds
CAAAATACAAAGGAGGGCTAGGAATAAAG (dsDNA)  binding (Ethylene-responsive transcription factor 13 (Nicotiana attenuata, UniProt A0A1J6JM52); EMSA; double-stranded DNA, one strand shown): binds
GTGTGGTTAATATGGTGTGGTTAATATGGTGTGGTTAATATGGTGTGGTTAATATG (dsDNA)  binding (RNJ 604-911 W850A (Arabidopsis thaliana, UniProt Q84W56); EMSA; double-stranded DNA, one strand shown): no binding
TTATTATT (ssDNA)  binding (Rc3h1; NMR; single-stranded DNA): binds
ATACGGGAAGTTTGAGGCAAAATCCACTTGACCATAC (dsDNA)  binding (ERF-D2 full length assumed (Solanum lycopersicum, UniProt A0A3Q7JX06); EMSA; double-stranded DNA, one strand shown; mutant probe): no binding
UUUUU (ssRNA)  binding (Rc3h1; NMR; RNA): binds
DNA 1 TTGCATATTTAAAACATGTTGAGCTACAGCACCAGATTCAGCAATTAAGCTCTAAGCCATCCGCAAAAATGACCTCTTATCAA / DNA 2 TTGATAAGAGGTCATTTTTGCGGATGGCTTAGAGCTTAATTGCTGAATCTGGTGCTGTAGCTCAACATGTTTTAAATATGCAATGAC (dsDNA; 3' 4 nt overhang)  binding (MGM101; native MS; double-stranded DNA): binds
ATAAGTCACATGATGATATTTGATTTTATTATATTTTTAAAAAAAGTAAAAAATAAAAAGTAGTTTATTTTTAAAAAATAAAATTTAAAATATTTCACAAAATGATTTCCGAA (dsDNA)  binding (CENP-I 1-229 R226D (Thermochaetoides thermophila, UniProt G0SFF7); EMSA; double-stranded DNA, one strand shown): binds

A few entries again:
TGTTGTGTGGAATTGTGAGCGGATAACAATTTCACACAGG (dsDNA (Escherichia coli); blunt)  binding (lacI full length assumed N125C/D149C (Escherichia coli, UniProt P03023); filter binding; double-stranded DNA, one strand shown): binds
UGUACAUA (ssRNA)  binding (pum 1091-1426 (Drosophila melanogaster, UniProt P25822); crystal structure; RNA): binds
DNA 1 ACTTGCAAATTTGCAAATGCAT / DNA 2 TGATGCATTTGCAAATTTGCAA (dsDNA (Aquifex aeolicus); 5' 2-nt overhang)  binding (Transcriptional regulator (NtrC family) 374-442 (Aquifex aeolicus, UniProt O66551); X-ray crystallography; double-stranded DNA): binds
GGTTAGGGTTAG (ssDNA; 5'-phosphate)  binding (Pot1 1-301 (Mus musculus, UniProt Q91WC1); EMSA; single-stranded DNA): binds
CGCGCGCGCGCG (dsRNA; blunt self-complementary duplex)  binding (ADAR 133-199 (Homo sapiens, UniProt P55265); AUC sedimentation velocity; double-stranded RNA, one strand shown): binds
